Experimental data of several laboratories.
Every numbered part comes from another study and shows a few of its results, in no order.
Chain of UniProt P11362 (whole entry, looked up): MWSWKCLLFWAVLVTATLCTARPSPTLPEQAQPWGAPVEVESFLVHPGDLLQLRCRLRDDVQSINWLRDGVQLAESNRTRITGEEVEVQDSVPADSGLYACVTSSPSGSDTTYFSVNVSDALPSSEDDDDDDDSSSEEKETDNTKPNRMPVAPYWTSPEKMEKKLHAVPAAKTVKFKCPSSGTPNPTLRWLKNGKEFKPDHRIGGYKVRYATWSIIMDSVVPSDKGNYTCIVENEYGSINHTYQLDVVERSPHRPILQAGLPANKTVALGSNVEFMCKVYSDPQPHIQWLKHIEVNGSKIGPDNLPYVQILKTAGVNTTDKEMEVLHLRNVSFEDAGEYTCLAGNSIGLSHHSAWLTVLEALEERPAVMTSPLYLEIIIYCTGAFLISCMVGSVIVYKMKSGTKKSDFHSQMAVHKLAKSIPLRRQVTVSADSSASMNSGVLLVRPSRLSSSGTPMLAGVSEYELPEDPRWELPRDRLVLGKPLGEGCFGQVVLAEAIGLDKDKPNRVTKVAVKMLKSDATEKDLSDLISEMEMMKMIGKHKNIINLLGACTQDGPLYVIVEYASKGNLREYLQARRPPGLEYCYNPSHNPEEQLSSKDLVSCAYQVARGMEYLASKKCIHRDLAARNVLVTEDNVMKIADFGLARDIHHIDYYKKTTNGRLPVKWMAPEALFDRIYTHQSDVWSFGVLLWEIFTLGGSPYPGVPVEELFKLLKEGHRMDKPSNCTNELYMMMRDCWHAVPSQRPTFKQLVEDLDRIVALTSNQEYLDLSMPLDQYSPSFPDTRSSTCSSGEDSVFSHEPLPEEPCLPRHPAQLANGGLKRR
Chain of UniProt P06239 (whole entry, looked up): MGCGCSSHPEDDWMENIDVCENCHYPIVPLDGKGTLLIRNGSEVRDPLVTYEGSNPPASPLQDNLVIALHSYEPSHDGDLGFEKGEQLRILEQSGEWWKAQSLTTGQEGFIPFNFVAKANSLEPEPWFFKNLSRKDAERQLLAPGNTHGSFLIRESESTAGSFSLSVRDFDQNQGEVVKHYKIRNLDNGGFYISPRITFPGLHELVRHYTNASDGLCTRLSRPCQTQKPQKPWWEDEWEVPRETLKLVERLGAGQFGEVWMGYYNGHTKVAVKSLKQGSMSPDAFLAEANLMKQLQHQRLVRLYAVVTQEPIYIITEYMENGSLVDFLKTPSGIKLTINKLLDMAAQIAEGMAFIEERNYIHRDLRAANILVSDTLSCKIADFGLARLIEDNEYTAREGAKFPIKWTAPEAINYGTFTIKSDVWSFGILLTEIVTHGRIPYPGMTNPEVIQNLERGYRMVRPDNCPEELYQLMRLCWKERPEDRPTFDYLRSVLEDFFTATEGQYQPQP
Chain of UniProt Q9UL54 (whole entry, looked up): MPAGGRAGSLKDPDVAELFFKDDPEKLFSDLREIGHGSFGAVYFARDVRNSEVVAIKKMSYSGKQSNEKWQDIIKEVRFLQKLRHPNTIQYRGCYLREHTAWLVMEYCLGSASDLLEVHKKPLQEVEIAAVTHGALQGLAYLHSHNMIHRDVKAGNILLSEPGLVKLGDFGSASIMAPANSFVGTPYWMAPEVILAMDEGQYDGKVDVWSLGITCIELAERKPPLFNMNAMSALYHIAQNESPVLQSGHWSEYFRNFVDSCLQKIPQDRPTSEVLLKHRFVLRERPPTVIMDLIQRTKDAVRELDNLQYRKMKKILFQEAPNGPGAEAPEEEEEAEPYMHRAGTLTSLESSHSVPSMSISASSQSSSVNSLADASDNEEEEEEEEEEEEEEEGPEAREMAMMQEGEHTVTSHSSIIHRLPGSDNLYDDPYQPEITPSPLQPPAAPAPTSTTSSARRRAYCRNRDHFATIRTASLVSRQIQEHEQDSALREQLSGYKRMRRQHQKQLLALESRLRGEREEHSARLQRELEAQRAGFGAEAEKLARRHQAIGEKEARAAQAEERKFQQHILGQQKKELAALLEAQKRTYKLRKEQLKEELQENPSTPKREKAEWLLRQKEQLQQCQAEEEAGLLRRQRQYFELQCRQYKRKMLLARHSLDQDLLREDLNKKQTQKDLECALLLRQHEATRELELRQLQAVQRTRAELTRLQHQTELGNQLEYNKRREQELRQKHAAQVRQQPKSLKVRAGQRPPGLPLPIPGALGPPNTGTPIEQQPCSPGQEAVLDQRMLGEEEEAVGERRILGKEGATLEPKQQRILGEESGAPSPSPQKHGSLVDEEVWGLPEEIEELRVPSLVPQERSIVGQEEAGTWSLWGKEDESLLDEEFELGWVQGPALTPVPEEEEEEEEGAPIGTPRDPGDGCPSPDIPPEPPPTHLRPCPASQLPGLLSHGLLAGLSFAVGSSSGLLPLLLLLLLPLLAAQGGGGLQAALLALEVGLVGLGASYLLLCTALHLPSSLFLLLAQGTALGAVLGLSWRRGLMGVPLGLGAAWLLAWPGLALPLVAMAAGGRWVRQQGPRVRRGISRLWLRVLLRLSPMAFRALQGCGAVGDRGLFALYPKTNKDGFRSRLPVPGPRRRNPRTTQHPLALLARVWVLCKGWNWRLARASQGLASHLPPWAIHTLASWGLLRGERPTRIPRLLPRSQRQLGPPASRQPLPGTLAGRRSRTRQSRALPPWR
Chain of UniProt P42685 (whole entry, looked up): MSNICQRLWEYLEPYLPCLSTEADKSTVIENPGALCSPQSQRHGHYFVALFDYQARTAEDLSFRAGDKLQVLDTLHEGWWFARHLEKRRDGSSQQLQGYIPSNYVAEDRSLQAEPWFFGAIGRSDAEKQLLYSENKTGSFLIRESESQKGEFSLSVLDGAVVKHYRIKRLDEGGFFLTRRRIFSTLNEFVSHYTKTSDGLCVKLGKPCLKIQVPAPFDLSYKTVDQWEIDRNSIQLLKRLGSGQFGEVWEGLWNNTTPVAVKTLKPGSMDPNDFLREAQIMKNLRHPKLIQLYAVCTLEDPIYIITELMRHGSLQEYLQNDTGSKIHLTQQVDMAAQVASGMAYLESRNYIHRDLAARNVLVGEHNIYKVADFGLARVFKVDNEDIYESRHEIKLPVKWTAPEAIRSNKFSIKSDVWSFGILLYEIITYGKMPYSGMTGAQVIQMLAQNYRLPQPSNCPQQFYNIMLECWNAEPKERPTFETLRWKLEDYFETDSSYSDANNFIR
Chain of UniProt P36896 (whole entry, looked up): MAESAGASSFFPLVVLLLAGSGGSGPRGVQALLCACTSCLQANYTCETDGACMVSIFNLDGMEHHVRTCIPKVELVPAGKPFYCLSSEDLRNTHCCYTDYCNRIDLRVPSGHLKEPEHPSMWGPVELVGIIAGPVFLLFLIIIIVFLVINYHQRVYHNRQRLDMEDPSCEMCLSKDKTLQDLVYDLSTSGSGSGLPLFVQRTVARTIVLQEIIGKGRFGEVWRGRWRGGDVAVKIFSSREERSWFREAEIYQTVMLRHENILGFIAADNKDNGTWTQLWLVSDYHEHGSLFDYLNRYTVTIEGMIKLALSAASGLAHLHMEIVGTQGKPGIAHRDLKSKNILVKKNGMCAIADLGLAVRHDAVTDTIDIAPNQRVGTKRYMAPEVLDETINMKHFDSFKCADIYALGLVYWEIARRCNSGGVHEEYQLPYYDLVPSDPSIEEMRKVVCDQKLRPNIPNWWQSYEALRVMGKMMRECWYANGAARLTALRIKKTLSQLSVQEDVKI
Chain of UniProt P27361 (whole entry, looked up): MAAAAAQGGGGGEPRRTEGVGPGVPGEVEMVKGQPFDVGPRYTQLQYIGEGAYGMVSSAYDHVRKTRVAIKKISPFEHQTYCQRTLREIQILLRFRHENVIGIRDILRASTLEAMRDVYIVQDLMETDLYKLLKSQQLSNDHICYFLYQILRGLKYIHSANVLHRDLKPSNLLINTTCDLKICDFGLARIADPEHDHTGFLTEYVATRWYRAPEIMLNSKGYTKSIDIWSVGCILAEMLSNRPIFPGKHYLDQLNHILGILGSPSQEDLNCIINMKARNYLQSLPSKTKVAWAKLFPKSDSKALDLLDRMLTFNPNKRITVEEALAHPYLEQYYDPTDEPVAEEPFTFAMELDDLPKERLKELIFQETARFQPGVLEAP

Study 1
Target: Translocator protein (Tspo, Rattus norvegicus, UniProt P16257)
Chain of UniProt P16257 (whole entry, looked up): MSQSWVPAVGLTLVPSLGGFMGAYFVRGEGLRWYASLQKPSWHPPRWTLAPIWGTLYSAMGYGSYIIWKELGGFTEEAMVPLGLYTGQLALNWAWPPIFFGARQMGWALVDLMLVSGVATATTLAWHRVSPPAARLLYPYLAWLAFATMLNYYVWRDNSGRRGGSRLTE
Effect on: radioligand binding
Technique: radioligand displacement
Concentration: 10 µM
Structure (SMILES)	inhibition
CN(C)C(=O)Cn1cc(-c2nc(C3(c4ccc(-c5cnc(N)nc5)cc4)CC3)no2)cn1	7.97%
Cc1nccc(COC(=O)N2C[C@@H]3[C@@H](CNC(=O)c4ccc5[nH]nnc5c4)[C@@H]3C2)n1	-4.4%
CN([C@@H]1CCc2c(CC(=O)O)c3cc(S(C)(=O)=O)ccc3n2C1)S(=O)(=O)c1ccc(F)cc1	41.4%
Cc1cnc(-c2cc(Cl)ccc2F)cc1-n1c(=O)n(CC(N)=O)c2cnccc21	-8.98%

Study 2
Target: Centromere-binding protein 1, full length, His-tagged (CBF1, Saccharomyces cerevisiae, UniProt P17106, residues 1-351)
Chain of UniProt P17106 (whole entry, looked up): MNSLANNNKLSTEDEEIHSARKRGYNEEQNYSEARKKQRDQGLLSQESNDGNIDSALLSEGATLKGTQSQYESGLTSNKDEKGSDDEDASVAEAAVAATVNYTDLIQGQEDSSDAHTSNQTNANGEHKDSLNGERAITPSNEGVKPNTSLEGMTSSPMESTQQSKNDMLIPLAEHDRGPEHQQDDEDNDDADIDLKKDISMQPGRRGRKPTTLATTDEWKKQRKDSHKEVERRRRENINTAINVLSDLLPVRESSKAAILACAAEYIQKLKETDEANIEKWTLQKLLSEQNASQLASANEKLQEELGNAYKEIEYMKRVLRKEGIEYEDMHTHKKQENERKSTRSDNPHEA
Technique: competition protein-binding microarray
Molecule type: double-stranded DNA, one strand shown
Medium: in vitro
Concentration: 2 µM
Notes: whole 60-bp probe, lowest competitor level
Together with: Pho4 competitor, 0.05 µM
Reading: higher = stronger binding
Constant ends, left off below: … GTCTTGATTCGCTTGACGCTGCTG
Sequence	fluorescence intensity
CAATTCTTCGGGCGTCACATGACAAATATATAGGGA	3000 a.u.
CTAACGAAGGTTTGCGGTGTGGGTGACAAGCCAAGT	67.5 a.u.
TTGGACAAGCTGGCACACCTGATCGACGAGACACCG	96.4 a.u.
TTGCTGCGATTGCTGCTCGTGAAACGGAAAAAGCTA	75 a.u.
GGCCGCGGAGCGCTGAACGTGATGGTCCATTGTATG	110 a.u.
CATGCTGTTTTAGCGCGCGTGATGGGGACATAGATG	194 a.u.
CGTCCTAGTGATTGTCACTAAACTTCCATGAGGAAG	91.7 a.u.
TCCTTATGCAGGTATTCTGTGACAGTAAAGTATAGA	85.3 a.u.

Study 3
Target: Eukaryotic initiation factor 4A-I (EIF4A1, Homo sapiens, UniProt P60842, residues 1-406, full length assumed)
Chain of UniProt P60842 (whole entry, looked up): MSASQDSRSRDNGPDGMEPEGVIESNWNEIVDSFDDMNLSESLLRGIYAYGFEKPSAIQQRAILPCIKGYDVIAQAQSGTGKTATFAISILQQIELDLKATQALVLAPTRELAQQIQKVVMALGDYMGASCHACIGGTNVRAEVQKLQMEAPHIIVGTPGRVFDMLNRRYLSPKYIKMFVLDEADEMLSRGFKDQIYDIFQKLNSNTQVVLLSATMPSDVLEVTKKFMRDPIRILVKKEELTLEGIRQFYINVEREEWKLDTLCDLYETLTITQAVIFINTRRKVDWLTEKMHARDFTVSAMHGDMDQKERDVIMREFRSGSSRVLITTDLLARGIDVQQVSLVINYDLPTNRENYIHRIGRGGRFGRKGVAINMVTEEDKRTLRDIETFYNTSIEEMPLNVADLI
Technique: RNA Bind-n-Seq
Molecule type: RNA
Medium: in vitro
Concentration: 90 pmol
Notes: 4-mer, random 30-nt RNA, single round
Together with: 3 µM DMDA-PatA, 2 mM ADP, 2 mM phosphate
Baseline: input library
Reading: higher = stronger binding
Sequence	4-mer enrichment [fold]
CGUU	1.14
UAGC	0.825
CAUU	0.749
UUUU	1.27
AAGA	1.16
CCUC	0.584
UCGC	0.602
UUCU	0.726

Study 4
Structure (SMILES): CSc1nc(-c2ccnc(N[C@@H](C)c3ccccc3)c2)c(-c2ccc(F)cc2)[nH]1 (racemic)
Effect on: enzyme activity
Mode: inhibitor
Concentration: 0.5 µM
Baseline: control
target	remaining activity [%]
TEK (Homo sapiens, UniProt Q02763)	90.5
MAP3K14 (Homo sapiens, UniProt Q99558)	127
ARAF (Homo sapiens, UniProt P10398)	99
NEK1 (Homo sapiens, UniProt Q96PY6)	86.3
FGFR3 (Homo sapiens, UniProt P22607)	83.7
WEE1 (Homo sapiens, UniProt P30291)	76.1
GRK7 (Homo sapiens, UniProt Q8WTQ7)	100
MAPK3 (Homo sapiens, UniProt P27361)	68
FRK (Homo sapiens, UniProt P42685)	100
FGFR1 (Homo sapiens, UniProt P11362)	97.6
ACVR1B (Homo sapiens, UniProt P36896)	95.9
MST1R (Homo sapiens, UniProt Q04912)	81.3
LCK (Homo sapiens, UniProt P06239)	102
TAOK2 (Homo sapiens, UniProt Q9UL54)	92.7

Excerpt of the above (study 4):
target	remaining activity [%]
LCK (Homo sapiens, UniProt P06239)	102
TEK (Homo sapiens, UniProt Q02763)	90.5
TAOK2 (Homo sapiens, UniProt Q9UL54)	92.7
GRK7 (Homo sapiens, UniProt Q8WTQ7)	100
FGFR1 (Homo sapiens, UniProt P11362)	97.6
